Results from different studies.
A part holds a random share of what one study measured. Positions count from the first letter of the parent shown.
UniProt O43567, sequence (whole entry, looked up): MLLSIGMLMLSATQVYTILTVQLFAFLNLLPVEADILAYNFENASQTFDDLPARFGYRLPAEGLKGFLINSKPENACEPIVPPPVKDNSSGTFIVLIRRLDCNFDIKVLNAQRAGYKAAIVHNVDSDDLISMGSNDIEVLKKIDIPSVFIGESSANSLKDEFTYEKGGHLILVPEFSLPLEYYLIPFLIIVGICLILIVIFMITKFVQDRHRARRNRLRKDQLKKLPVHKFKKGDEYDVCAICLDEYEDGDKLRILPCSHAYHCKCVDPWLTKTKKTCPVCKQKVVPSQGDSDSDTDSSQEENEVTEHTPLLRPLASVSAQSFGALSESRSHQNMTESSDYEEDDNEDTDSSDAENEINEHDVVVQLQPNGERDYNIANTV
UniProt Q9BY78, sequence (whole entry, looked up): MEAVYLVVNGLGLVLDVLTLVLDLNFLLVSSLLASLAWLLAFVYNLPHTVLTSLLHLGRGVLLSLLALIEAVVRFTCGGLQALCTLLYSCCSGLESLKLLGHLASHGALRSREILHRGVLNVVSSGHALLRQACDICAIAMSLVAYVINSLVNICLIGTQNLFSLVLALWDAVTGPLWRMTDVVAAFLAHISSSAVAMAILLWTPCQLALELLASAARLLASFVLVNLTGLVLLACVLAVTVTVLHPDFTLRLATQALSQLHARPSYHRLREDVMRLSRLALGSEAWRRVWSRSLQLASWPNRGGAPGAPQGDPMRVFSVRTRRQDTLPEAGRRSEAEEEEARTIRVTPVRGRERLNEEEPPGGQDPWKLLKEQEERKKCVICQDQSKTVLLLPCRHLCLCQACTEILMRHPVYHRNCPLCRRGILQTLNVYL
UniProt Q9UNE7, sequence (whole entry, looked up): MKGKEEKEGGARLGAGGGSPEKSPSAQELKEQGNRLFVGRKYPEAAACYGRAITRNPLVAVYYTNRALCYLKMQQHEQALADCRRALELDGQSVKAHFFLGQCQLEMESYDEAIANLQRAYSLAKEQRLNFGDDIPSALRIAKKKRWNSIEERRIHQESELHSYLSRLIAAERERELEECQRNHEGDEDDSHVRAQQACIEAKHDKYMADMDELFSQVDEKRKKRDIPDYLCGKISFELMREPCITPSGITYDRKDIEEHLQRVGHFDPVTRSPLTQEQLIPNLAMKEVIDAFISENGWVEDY

Study 1
Target: CCNB1, cyclin fold, Cln2 fusion (human)
Method: yeast growth competition, sequencing
Matrix: yeast
Notes: strong parent motif
Reference: not given
Direction: higher = stronger binding
Starting sequence: viral docking peptide; TSVRRALFTGGSD
Substitution	normalised enrichment score
R5K	1.81
R4I	2.22
R4C	2.75
L7N	0.322
L7K	0.378
R5A L7A	0.04
S12Y	1.91
G10W	1.11

Study 2
Target: UBE2A UBC core domain (UniProt P49459)
UniProt P49459, sequence (whole entry, looked up): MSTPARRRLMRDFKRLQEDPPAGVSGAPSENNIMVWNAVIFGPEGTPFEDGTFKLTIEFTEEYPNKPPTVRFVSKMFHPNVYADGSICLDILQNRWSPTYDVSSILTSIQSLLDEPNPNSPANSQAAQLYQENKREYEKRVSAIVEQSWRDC
Method: yeast two-hybrid
Matrix: yeast
Notes: mostly zero background
Reference: not given
Direction: higher = stronger interaction
Molecule	lacZ reporter activity
RNF26 RING domain (UniProt Q9BY78)	0
STUB1 RING domain (UniProt Q9UNE7)	0
RNF13 RING domain (UniProt O43567)	0

Study 3
Target: HLA class I histocompatibility antigen, A alpha chain, allele A*25:01 (Homo sapiens, UniProt P04439)
Observed: peptide-MHC binding
Molecule type: peptide
Tested at: concentration not given
Sequence	binding
VVPSYIPLV	inactive
DEGFHAATV	inactive
QCFSVVLRY	inactive
LSIIFGRSY	inactive
FLFDRLTNG	inactive
EWAENCYNL	inactive
DETFVHSGF	inactive
FATPAFFLI	inactive

Further values, each from its own experiment
Structure (SMILES)	cell line	assay	conditions	scale	endpoint	value
CN(C)C1C(=O)C(C(N)=O)=C(O)C2(O)C(=O)C3=C(O)c4c(O)cccc4C(C)(O)C3CC12 (centres unmarked)	mouse MPNST tumor cells	high-content nuclear imaging, measured: cell number	10 µM, 12 h, mean of 2 replicates	reference: plate mean, higher = more cells	nuclei count	1.82 z-score

Some of these lines once more (study 3):
Sequence	binding
FATPAFFLI	inactive
